Published values gathered from unrelated publications.
Compare with care: the assays were run in different laboratories. Numbers after ± are the reported error.
Cell line: NCI-H460

O=c1c(/C=C/c2ccccc2Cl)nc2ccccc2n1Cc1ccccc1  IC50 (cell growth or viability, MTT; 72 h): 18.1 µM
CC(C)C[C@H](NC(=O)C(CSc1c(F)c(F)c(F)c(F)c1F)NC(=O)[C@@H](NC(=O)CCc1ccccc1)C(C)C)C(=O)[C@@]1(C)CO1 (stereo in doubt)  IC50 (cell viability): > 0.6 µM
O=C(O)Cc1ccccc1Nc1c(Cl)cccc1Cl.O=C(O)Cc1ccccc1Nc1c(Cl)cccc1Cl.c1cnc2c(c1)ccc1cccnc12.c1cnc2c(c1)ccc1cccnc12  IC50 (cell viability, MTT; 48 h): 4.74 ± 0.86 µM
O=c1c(/C=C/c2ccccc2Br)nc2ccccc2n1Cc1ccccc1  IC50 (cell growth or viability, MTT; 72 h): 21.5 µM
CC(C)C[C@H](NC(=O)[C@@H]1CS(=O)(=O)CCCCCCCCCC(=O)N[C@@H](C(C)C)C(=O)N1)C(=O)[C@@]1(C)CO1  IC50 (cell growth or viability): 0.012 µM
CCOc1ccc2cc(C3CC(c4ccc(Br)cc4)=NN3C(=O)CCC(=O)O)c(Cl)nc2c1 (stereo not shown)  IC50 (cell growth or viability, flow cytometry; 48 h): 30.8 µM
COc1cccc(/C=C/c2nc3ccccc3[nH]c2=O)c1OC  IC50 (cell growth or viability, MTT; 72 h): > 50 µM
COc1ccc(-c2nn(-c3ccccc3)cc2C2CC(c3ccc(Br)cc3)=NN2C(=O)CCC(=O)O)cc1 (stereo not shown)  IC50 (cell growth or viability, flow cytometry; 48 h): 31 µM
O=c1c(/C=C/c2ccccc2F)nc2ccccc2n1Cc1ccccc1  IC50 (cell growth or viability, MTT; 72 h): 16.8 µM
CC(C)C[C@H](NC(=O)[C@@H](CSc1c(F)c(F)c(F)c(F)c1F)NC(=O)c1cc(Cl)ccc1Cl)C(=O)[C@@]1(C)CO1  IC50 (cell growth or viability): 6.67 µM
CC(=O)O[C@H]1C(=O)[C@@]2(C)[C@H]([C@H](OC(=O)c3ccccc3)[C@]3(O)C[C@H](OC(=O)[C@H](O)[C@@H](NC(=O)c4ccccc4)c4ccccc4)C(C)=C1C3(C)C)[C@]1(OC(C)=O)CO[C@@H]1C[C@@H]2O  IC50 (cell viability; 10 min exposure, 120 h recovery): 0.024 µM
CC(C)C[C@H](NC(=O)CNC(=O)c1cc(Cl)ccc1Cl)C(=O)[C@@]1(C)CO1  IC50 (cell growth or viability): 9.1 µM
Cc1ccc(-c2nn(-c3ccccc3)cc2C2CC(c3ccc(Br)cc3)=NN2C(=O)CCC(=O)O)cc1 (stereo not shown)  IC50 (cell growth or viability, flow cytometry; 48 h): 38 µM

Some of these lines once more:
CC(C)C[C@H](NC(=O)[C@@H](CSc1c(F)c(F)c(F)c(F)c1F)NC(=O)c1cc(Cl)ccc1Cl)C(=O)[C@@]1(C)CO1  IC50 (cell growth or viability): 6.67 µM
